Results of several laboratories.
Compare with care: the assays were run in different laboratories. ± marks the error that the study gave.

Structure (SMILES)	organism	assay	test system	conditions	EC50
Cc1cc(C(=O)Nc2nc3cccc(C)c3n2[C@H]2CCCCN(C(=O)/C=C/CN(C)C)C2)ccn1	Trypanosoma brucei brucei	cell growth, CellTiter-Glo	Lister 427 bloodstream form	48 h	72 nM
CCN(CC)CCSC(=S)N1CCN(C(=O)/C=C/c2coc3ccccc3c2=O)CC1	tomato spotted wilt virus	virus inactivation, half-leaf method	Nicotiana glutinosa	tested 31.25 to 500 µg/mL	235 ± 8.1 µg/mL
COc1cc([C@@H]2c3cc4c(cc3[C@@H](C=C(C)C)[C@H]3COC(=O)[C@@H]23)OCO4)cc(OC)c1OC	Dengue virus 2	viral replication, plaque reduction	BHK-21	144 h, post-infection treatment	72400 nM
O=C1NC(=O)/C(=C/c2ccc3ncnc(N4CCC(F)CC4)c3n2)S1	Cryptosporidium parvum	parasite growth, immunofluorescence microscopy	HCT-8, Iowa	48 h post infection, compound added at 3 h	140 nM
COc1cc(/C=C(\C#N)C(=O)c2ccc(O)c(O)c2)cc(I)c1O	Strongylocentrotus purpuratus	calcium release, agonist	egg homogenate	without cADPR	9100 ± 1500 nM
CCCCSC(=S)N1CCN(C(=O)/C=C/c2coc3ccccc3c2=O)CC1	tomato spotted wilt virus	virus inactivation, half-leaf method	Nicotiana glutinosa	tested 31.25 to 500 µg/mL	430 ± 7.9 µg/mL
COc1ccc(S(=O)(=O)NCc2c[nH]nc2-c2cccs2)cc1	Cryptosporidium parvum	parasite replication	HCT-8, AUCP-1	24 h, continuous treatment	230 nM
CC(C)(O)Cn1nc(-c2ccc3nc(OC(F)F)ccc3c2)c2c(N)ncnc21	Cryptosporidium parvum	parasite growth	HCT-8	–	286 nM
CNCCNC(=O)CN1C(=O)Cc2c([nH]c3ccc(Br)cc23)-c2ccc(Cl)cc21	Leishmania braziliensis	parasite growth	J774	24 h, intracellular, amastigote	~4000 nM
O=C(/C=C/c1coc2ccccc2c1=O)N1CCN(C(=S)SCc2ccccc2)CC1	tomato spotted wilt virus	virus inactivation, half-leaf method	Nicotiana glutinosa	tested 31.25 to 500 µg/mL	434 ± 9.3 µg/mL
CC(=O)N1CCN(C(=O)c2ccc(Nc3nccc(-c4ccc(Cl)cc4)n3)cc2)CC1	Cryptosporidium parvum	parasite growth, immunofluorescence microscopy	HCT-8, Iowa	48 h post infection, compound added at 3 h	4100 nM

Some of these lines once more:
Structure (SMILES)	organism	assay	test system	conditions	EC50
CNCCNC(=O)CN1C(=O)Cc2c([nH]c3ccc(Br)cc23)-c2ccc(Cl)cc21	Leishmania braziliensis	parasite growth	J774	24 h, intracellular, amastigote	~4000 nM
O=C(/C=C/c1coc2ccccc2c1=O)N1CCN(C(=S)SCc2ccccc2)CC1	tomato spotted wilt virus	virus inactivation, half-leaf method	Nicotiana glutinosa	tested 31.25 to 500 µg/mL	434 ± 9.3 µg/mL
